Values quoted from earlier work that unrelated publications cite.
Numbers after ± are the reported error. Values after ≈ are worked out from the molar mass of the structure shown.
UniProt P41595, sequence (whole entry, looked up): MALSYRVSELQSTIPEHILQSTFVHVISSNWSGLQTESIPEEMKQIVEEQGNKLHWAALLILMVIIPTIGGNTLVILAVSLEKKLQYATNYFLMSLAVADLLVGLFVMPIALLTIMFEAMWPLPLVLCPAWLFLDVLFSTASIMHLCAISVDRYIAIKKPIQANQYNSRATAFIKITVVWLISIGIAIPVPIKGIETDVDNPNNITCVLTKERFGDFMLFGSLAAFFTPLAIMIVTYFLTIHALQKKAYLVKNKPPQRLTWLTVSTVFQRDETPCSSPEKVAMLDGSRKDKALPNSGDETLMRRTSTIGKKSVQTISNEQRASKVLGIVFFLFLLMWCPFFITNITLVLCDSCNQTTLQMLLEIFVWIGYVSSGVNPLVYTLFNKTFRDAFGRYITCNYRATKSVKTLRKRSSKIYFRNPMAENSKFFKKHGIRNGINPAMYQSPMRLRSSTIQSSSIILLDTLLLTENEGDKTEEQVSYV
UniProt P48039, sequence (whole entry, looked up): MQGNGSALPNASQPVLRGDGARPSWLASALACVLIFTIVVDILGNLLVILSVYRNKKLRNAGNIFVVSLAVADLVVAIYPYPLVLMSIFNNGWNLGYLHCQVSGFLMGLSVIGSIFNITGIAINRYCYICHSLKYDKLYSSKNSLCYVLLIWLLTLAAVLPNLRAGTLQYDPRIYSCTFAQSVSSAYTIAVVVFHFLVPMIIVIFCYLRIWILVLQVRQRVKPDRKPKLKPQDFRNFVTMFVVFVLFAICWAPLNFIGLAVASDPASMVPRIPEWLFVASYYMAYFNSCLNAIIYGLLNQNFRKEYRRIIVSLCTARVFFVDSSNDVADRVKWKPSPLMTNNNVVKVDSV
UniProt P15056, sequence (whole entry, looked up): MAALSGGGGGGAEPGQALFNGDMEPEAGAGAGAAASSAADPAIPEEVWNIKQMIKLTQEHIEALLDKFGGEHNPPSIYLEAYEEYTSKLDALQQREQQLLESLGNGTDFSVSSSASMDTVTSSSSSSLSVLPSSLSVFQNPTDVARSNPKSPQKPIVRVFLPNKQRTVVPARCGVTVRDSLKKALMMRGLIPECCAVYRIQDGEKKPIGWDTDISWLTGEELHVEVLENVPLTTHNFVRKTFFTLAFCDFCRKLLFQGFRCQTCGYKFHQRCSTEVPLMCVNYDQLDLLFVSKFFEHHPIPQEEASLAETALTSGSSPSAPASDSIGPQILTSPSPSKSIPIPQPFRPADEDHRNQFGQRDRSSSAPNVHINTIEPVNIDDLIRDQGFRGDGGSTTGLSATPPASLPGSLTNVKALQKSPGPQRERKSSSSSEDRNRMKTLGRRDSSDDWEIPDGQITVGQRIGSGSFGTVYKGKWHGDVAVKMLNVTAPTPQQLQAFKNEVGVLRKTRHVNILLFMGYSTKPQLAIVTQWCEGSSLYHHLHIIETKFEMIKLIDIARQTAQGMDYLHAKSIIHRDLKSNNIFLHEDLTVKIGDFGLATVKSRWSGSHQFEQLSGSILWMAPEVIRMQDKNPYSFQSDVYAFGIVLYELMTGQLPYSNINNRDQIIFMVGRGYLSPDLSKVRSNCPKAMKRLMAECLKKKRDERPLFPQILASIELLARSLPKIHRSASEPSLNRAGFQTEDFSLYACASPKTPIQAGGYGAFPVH
UniProt P31645, sequence (whole entry, looked up): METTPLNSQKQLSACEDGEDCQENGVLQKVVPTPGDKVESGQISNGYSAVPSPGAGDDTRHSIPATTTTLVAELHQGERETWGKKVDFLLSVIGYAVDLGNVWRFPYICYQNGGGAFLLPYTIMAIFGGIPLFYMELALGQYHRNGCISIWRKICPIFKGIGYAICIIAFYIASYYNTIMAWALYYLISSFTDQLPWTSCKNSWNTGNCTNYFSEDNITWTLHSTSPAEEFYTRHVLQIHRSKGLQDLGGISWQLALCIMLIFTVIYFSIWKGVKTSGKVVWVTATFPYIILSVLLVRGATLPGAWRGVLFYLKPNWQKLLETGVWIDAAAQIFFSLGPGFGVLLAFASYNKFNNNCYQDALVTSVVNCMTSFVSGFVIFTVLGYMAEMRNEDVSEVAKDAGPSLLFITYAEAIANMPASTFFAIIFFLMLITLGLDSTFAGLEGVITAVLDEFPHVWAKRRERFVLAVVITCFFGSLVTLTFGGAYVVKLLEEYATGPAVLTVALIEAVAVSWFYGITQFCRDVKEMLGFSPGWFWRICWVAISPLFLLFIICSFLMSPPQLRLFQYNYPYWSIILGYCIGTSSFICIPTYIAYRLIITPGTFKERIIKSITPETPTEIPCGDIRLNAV
UniProt P03372, sequence (whole entry, looked up): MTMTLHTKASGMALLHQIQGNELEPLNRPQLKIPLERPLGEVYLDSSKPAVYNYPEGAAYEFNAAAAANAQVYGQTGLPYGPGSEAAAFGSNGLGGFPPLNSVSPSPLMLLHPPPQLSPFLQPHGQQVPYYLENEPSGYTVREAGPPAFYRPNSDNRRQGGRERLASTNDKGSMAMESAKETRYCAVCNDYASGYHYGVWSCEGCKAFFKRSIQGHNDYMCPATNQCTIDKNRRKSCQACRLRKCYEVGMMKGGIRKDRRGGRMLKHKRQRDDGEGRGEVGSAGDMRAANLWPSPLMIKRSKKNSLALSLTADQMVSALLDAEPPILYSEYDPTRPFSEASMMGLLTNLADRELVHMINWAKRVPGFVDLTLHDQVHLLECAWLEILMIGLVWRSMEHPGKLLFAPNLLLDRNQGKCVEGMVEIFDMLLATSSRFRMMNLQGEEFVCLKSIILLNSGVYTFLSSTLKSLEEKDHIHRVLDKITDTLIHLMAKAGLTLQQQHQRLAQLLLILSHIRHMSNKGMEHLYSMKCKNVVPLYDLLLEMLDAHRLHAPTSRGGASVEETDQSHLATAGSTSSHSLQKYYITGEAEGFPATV

CO[C@@H]1O[C@H](CO)[C@H](O)[C@H](O)[C@H]1O  -ΔH (PA-I galactophilic lectin (lecA, Pseudomonas aeruginosa, UniProt Q05097); ITC): 9.32 kcal/mol
C=CC(=O)N1CCC(C(=O)NCC(=O)N2CCN(c3nc(-c4cnc(N)nc4C(F)F)nc(N4CCOCC4)n3)CC2)CC1  remaining activity (Phosphatidylinositol 4,5-bisphosphate 3-kinase catalytic subunit alpha isoform (PIK3CA, Homo sapiens, UniProt P42336, C420R); kinase activity; 1 µM): 0.6%
CNC(C)C1CCC(N)C(OC2C(N)CC(N)C(OC3OCC(C)(O)C(NC)C3O)C2O)O1 (stereo not drawn)  MIC (Klebsiella oxytoca; clinical isolate RKI 52/07): 2 µg/mL (≈ 4.19 µM)
CCN(c1cc(-c2ccc(CN3CCOCC3)cc2)cc(C(=O)NCc2c(C)cc(C)[nH]c2=O)c1C)C1CCOCC1  inhibition (Histone-lysine N-methyltransferase EHMT1 (EHMT1, Homo sapiens, UniProt Q9H9B1); enzyme activity, inhibitor; 1 µM): 6 ± 6%
CC(=O)N[C@@H](COP(=O)(O)O)C(=O)N1CCC[C@H]1C(=O)N[C@@H](C)C(=O)N[C@@H](Cc1ccccc1)C(N)=O  ΔG (Breast cancer type 1 susceptibility protein, tandem BRCT domains (BRCA1, Homo sapiens, UniProt P38398); isothermal titration calorimetry): -5.9 ± 0.2 kcal/mol
CC(C)[C@@H](CN1CC[C@@](C)(c2cccc(O)c2)[C@@H](C)C1)NC(=O)[C@H]1Cc2ccc(O)cc2CN1  Ke (delta opioid receptor (human); antagonist; added: DPDPE): 76.4 ± 2.7 nM
Nc1cc(C(F)(F)F)c(-c2nc(N3CCOCC3)nc(N3CCOCC3)n2)cn1  remaining activity (Serine/threonine-protein kinase B-raf (BRAF, Homo sapiens, UniProt P15056); enzyme activity; 10 µM; relative to: untreated): 75%
CC1(C)S[C@@H]2[C@H](NC(=O)[C@H](N)c3ccccc3)C(=O)N2[C@H]1C(=O)O  MIC (Escherichia coli; clinical isolate RKI-No_1023/14): > 16 µg/mL
N#Cc1ccc2[nH]cc(CCCCN3CCN(c4ccc5oc(C(N)=O)cc5c4)CC3)c2c1  Hill coefficient (Sodium-dependent serotonin transporter (SLC6A4, Homo sapiens, UniProt P31645); serotonin uptake, inhibitor; added: [3H]5-HT): 1.82
O=[N+]([O-])c1cc(C(F)(F)F)ccc1NCc1ccco1  koff (Endothelial PAS domain-containing protein 1, PAS-B domain (EPAS1, Homo sapiens, UniProt Q99814); binding; PAS-B domain, wild type): 2.5 ± 0.1 s⁻¹
Cc1c(C#N)cccc1[C@@H](C)Nc1nnc(C)c2cnc(N3CCOCC3)cc12  IC50 (ASPC1; ERK phosphorylation, In-Cell Western, measured: phospho-ERK): > 1 µM
CC[C@H]1OC(=O)[C@H](C)[C@@H](O[C@H]2C[C@@](C)(OC)[C@@H](O)[C@H](C)O2)[C@H](C)[C@@H](O[C@@H]2O[C@H](C)C[C@H](N(C)C)[C@H]2O)[C@](C)(O)C[C@@H](C)C(=O)[C@H](C)[C@@H](O)[C@]1(C)O  Km (Cytochrome P450 3A4 (CYP3A4, Homo sapiens, UniProt P08684); substrate; concentration not given): 70 µM
Cc1c(CN2CCN(C(=O)[C@H](C)O)CC2)sc2c(N3CCOCC3)nc(-c3cnc(N)nc3)nc12  remaining binding (Phosphatidylinositol 3-kinase C2 domain-containing subunit gamma (PIK3C2G, Homo sapiens, UniProt O75747); KinomeScan competition binding; 10 µM): 12%
CC1=CC(=O)N(c2ccccc2)C1=O  conversion (Old Yellow Enzyme 1; substrate): > 99%
O=C(CCCCCCc1ccccc1)c1ncc(-c2ccccn2)o1  binding (cannabinoid CB1 receptor; concentration not given): no binding
O=C1CC[C@H](N2Cc3cc(N4CCN(CC5CCN(c6ccc([C@@H]7c8ccc(O)cc8CC[C@@H]7c7ccccc7)cc6)CC5)CC4)ccc3C2=O)C(=O)N1  average degradation (Estrogen receptor (ESR1, Homo sapiens, UniProt P03372); degrader; human patients, paired tumour biopsies; 200 mg once daily): 71%
NCCc1c[nH]c2ccc(O)cc12  functional potency reduction (5-HT2A receptor Y7.43A; concentration not given; relative to: wild type receptor): 300 fold
COc1cc2nc(N3CCN(C(=O)c4ccco4)CC3)nc(N)c2cc1OC  Hill coefficient (Alpha-1A adrenergic receptor (Adra1a, Rattus norvegicus, UniProt P43140); historical reference value): 0.9
O=C(Nc1nc2ccccc2[nH]1)c1ccccc1  activity (luciferase; PubChem AID 588342): 1.5 µM
CC(C)CCC[C@@H](C)[C@H]1CC[C@H]2C3=CC=C4C[C@@H](O)CC[C@@]4(C)[C@@H]3CC[C@]12C  metabolism rate (Cholesterol side-chain cleavage enzyme, mitochondrial (Bos taurus, UniProt P00189); substrate): 4.8 mol/min/mol enzyme
O=C(c1ccc(F)cc1)C1CCN(CCn2c(=O)[nH]c3ccccc3c2=O)CC1  Hill coefficient (5-hydroxytryptamine receptor 2B (HTR2B, Homo sapiens, UniProt P41595); historical reference value): 0.6
Cc1nc(NC(=O)N2CCC[C@H]2C(N)=O)sc1-c1ccnc(C(C)(C)C(F)(F)F)c1  remaining binding (Phosphatidylinositol 4,5-bisphosphate 3-kinase catalytic subunit gamma isoform (PIK3CG, Homo sapiens, UniProt P48736); KinomeScan competition binding; 10 µM): 0%
Cc1cc(NC(=O)c2cccc(NC(=O)/C=C/CN(C)C)c2)ccc1Nc1nccc(-c2cccnc2)n1  remaining activity (Focal adhesion kinase 1 (PTK2, Homo sapiens, UniProt Q05397); enzyme activity, inhibitor; 1 µM; relative to: vehicle): 11%
COc1ccc2[nH]cc(CCNC(C)=O)c2c1  Hill coefficient (Melatonin receptor type 1A (MTNR1A, Homo sapiens, UniProt P48039); binding): 0.7

For quick reference, copied from above:
CC1=CC(=O)N(c2ccccc2)C1=O  conversion (Old Yellow Enzyme 1; substrate): > 99%
O=C(CCCCCCc1ccccc1)c1ncc(-c2ccccn2)o1  binding (cannabinoid CB1 receptor; concentration not given): no binding
O=C1CC[C@H](N2Cc3cc(N4CCN(CC5CCN(c6ccc([C@@H]7c8ccc(O)cc8CC[C@@H]7c7ccccc7)cc6)CC5)CC4)ccc3C2=O)C(=O)N1  average degradation (Estrogen receptor (ESR1, Homo sapiens, UniProt P03372); degrader; human patients, paired tumour biopsies; 200 mg once daily): 71%
NCCc1c[nH]c2ccc(O)cc12  functional potency reduction (5-HT2A receptor Y7.43A; concentration not given; relative to: wild type receptor): 300 fold
